Experimental data gathered from unrelated publications.
Every numbered part comes from another study and shows a few of its results, in no order.

Block 1
Target: RNA binding protein fox-1 homolog 2, RRM domain, GST-SBP tag (RBFOX2, Homo sapiens, UniProt O43251-10, residues 100-194)
Method: RNA Bind-n-Seq
Molecule type: RNA
Sample: in vitro
Concentration: 365 nM
Notes: natural RNA segment, single round, ends assumed
Reference: no-protein control
Reading: higher = stronger binding
All sequences stand within: GGGAGUUCUACAGUCCGACGAUC … UGGAAUUCUCGGGUGCCAA
Construct (chain): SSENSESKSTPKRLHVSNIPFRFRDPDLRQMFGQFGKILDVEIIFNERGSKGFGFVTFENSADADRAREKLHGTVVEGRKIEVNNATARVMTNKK
| Oligonucleotide | RBNS enrichment (R) |
| --- | --- |
| CUGGAAUGCUUGUGAGUCCGUUCCCACAGGCUCACAGUGUCAGGAGAGAGUGGCAGAUGCUCCAGUUUCACUUAAGCAGUGGUAAACGUUUGAAGGUUCGUUUUUUGUUG | 0.589 |
| AAUUCACCUAGCAUAGGCUCUUUGAAAUGUCCUCUGUUUGAUAAAAAACAAUCCUGGGUACGUAUGUUGGCUGGAAAACCACAAUGGACCCUGCCACUGCUUCUUGCCCU | 0.307 |
| CACCAUCCAUCUUCAAGAAGCUACUUUGAAAGUCUGGCCAGUGUCUAUUCAGGCCCACUGGGAGUUAGGAAGUAUAAGUAAGCCAAGAGAAGUCAGCCCCUGCCCAGAAG | 0.4 |
| AAACAUCACCUAUUUAAUGUUUUUAAUCACAUUUUGUAUGGAGUUAAAUAAAGUACAGUGCUUUUGUUAUAUUUUGGUGUACUUGUUACUUUCACUGAUUGUUGAUGAAU | 0.723 |
| UCCGCCCACCGACGCCAUGGGCACACUGCUCCCUCCUCCUCCUCCAGCUACUUUGUGUUGAACACAAUUGAUUCUCCAGGUGCUCAUGGUGCAGGAAAACAGGACAGACA | 0.843 |
| GAUGCCCUCCUGAAACCAUGAGAAGCUUCAGCCUUGCCUCACUGGCUUCCCCAUCUGACCCCACCAGGUACCACACUGUCACCCAGUGUCCUUGAUCUCCUCUUGUUCCC | 0.597 |
| CAUUGACGCUUGAGUGAGCACGCCAGCGUCCUUGUCCUUAUGGGAUGCCUCAGGAUCUUGUUUCUGACACCAGAAUGCAACAGAUGAGAAGCUUUUUGGUGUGAACUGGA | 0.42 |
| GGUGAGGCCAGCUCACAGAGUGACAUCAUGGUCACCAGUACAUGUCGCUGGAGUAAAAUCUUGCCUUUAGAAACUAGGUUGAGCUGUUCAGAAAGGUCAAUUCUCUUCUG | 0.26 |
| UGUAACCUCAACUUCCAAAGUUUAUAUUUUCUUGAAAUGAUGGAUCUAUUGCUCAACAGUCCCUGUCAUCCUUAAGUGACUUCUGGGUUUCCCACAAAUUCCUCACUUUU | 0.507 |
| CACCGCAGCAGCAUCUUCAAGAAUAAAGCAAUAUAGUUUACUACAUUUUUUUUUAAAAUUGAAGGUCAGCCAUGCUUUCUGUAUUAUAUUGCAUAUGAAAUUGUUUACAA | 0.399 |
| GAGAAGCAGAUGAAGCUGUACUACCCAGCCCUCUUCUUGUUUGUAUUUGUUUAGGGUUGUGAGGUUGUGUAAAAUAGUACUAGCUUCUUACUUGAGAACUACAGUUUCUG | 1.84 |
| ACCAAAGCUGAGGUCCCCUUGAUCAUGAACUCCAUAAAAUCCUUUUCUGACCACGCUCAAUGUGGAAGGCUGGAAGUACACCUUGUUGGAGGCUUCAGUGACGACAGGCA | 0.423 |

Block 2
Target: Histone acetyltransferase KAT6A, both winged helices, GST fusion (KAT6A, Homo sapiens, UniProt Q92794, residues 1-181)
Method: protein binding microarray
Molecule type: double-stranded DNA, one strand shown
Sample: in vitro
Concentration: not given
Notes: 8-mer, flanks averaged, mean of 2 arrays, mostly near background
Reference: not given
Reading: higher = stronger binding
Residues (chain): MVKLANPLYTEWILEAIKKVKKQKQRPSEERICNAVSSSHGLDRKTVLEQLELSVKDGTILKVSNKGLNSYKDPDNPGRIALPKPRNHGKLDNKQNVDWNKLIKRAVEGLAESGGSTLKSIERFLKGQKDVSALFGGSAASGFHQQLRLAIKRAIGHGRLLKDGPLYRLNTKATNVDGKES
| Oligonucleotide | E-score |
| --- | --- |
| TCTGCACA | -0.0271 |
| CAAAAGGA | -0.0742 |
| CCCTGTGC | 0.0351 |
| CTGATGTA | -0.0177 |
| AAATGAAG | -0.0223 |
| AAGCAGGA | -0.0791 |
| ACGGAAGC | 0.236 |
| ACAAAACG | 0.0556 |
| CTGTTGCA | -0.0154 |
| AGCTACGA | -0.0813 |
| GAGTGCCC | -0.135 |
| ATTCATCG | 0.0248 |
| AATTTGAT | -0.127 |
| CAGTGCCA | -0.299 |
| GATTACAC | -0.0149 |
| GCGGGACA | 0.295 |
| ACGAGCAT | -0.175 |
| ACATAACC | -0.0496 |
| AATATTGG | -0.129 |
| CTGAGTCC | 0.051 |
| AGTACGCC | 0.173 |

Block 3
Target: Ras GTPase-activating protein-binding protein 1, full length (G3BP1, Homo sapiens, UniProt Q13283)
UniProt Q13283, sequence (whole entry, looked up): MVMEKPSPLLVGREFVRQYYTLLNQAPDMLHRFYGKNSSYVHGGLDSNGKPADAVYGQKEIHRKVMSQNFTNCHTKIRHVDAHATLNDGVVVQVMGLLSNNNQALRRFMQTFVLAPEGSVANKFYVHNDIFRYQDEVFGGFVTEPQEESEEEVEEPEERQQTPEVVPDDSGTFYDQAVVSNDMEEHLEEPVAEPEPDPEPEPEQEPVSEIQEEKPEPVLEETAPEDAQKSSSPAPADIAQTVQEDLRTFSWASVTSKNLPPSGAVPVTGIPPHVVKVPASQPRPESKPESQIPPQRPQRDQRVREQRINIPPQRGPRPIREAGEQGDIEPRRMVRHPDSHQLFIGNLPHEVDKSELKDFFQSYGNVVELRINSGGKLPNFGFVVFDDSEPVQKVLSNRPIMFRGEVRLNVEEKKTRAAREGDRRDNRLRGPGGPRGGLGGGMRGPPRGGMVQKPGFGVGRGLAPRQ
Method: RNA Bind-n-Seq
Molecule type: RNA
Sample: in vitro
Concentration: 200 nM
Notes: whole 134-nt RNA, ends assumed
Added: 150 mM LiCl
Reference: input library
Reading: higher = stronger binding
Each molecule: 7-deaza-guanosine replaces G
All sequences stand within: GGGAGUUCUACAGUCCGACGAUC … UGGAAUUCUCGGGUGUCAAGG
| Oligonucleotide | log2 enrichment |
| --- | --- |
| UCAAGUCCUGUGCUACACAUCGUAUGUACCGAAUCGGUUUUUGGUGGUUUUUGGAAAGUAUUAUGUUACGCCGUUCGGAUCUGCACUUCC | -0.0303 |
| UCAAGUCCUGUGCUACACAUCGUAUGUACCGAAUCGGGGCCGGGGCCGGCCGGGAAAGUAUUAUGUUACGCCGUUCGGAUCUGCACUUCC | 0.323 |
| CCUCAAGUCCUGUGCUACACAUCGUAUGUACCGAAUCGGGUGGGAGGGAGGGAAAGUAUUAUGUUACGCCGUUCGGAUCUGCACUUCCAG | 0.021 |
| UCCUGUGCUACACAUCGUAUGUACCGAAUCGGAAAAAAGGGGAAAAAAGGAAAAAAGGGAAAGUAUUAUGUUACGCCGUUCGGAUCUGCA | -0.136 |
| AGUCCUGUGCUACACAUCGUAUGUACCGAAUCGGGGAGGGGAAAAAAAGGGGUGGGGAAAGUAUUAUGUUACGCCGUUCGGAUCUGCACU | 0.205 |
| ACCAUGCAGGUGGGCAUCUUUGGGAAGUGGGGCAAGGGGGGGAUAGGGAGGGGGGUAACACUUUGGGAACAGGUGGUCCCAGGUCGCUUC | 0.179 |
| AAGUCCUGUGCUACACAUCGUAUGUACCGAAUCAAACCCAAACCCAAACCCCCAAAAAAGUAUUAUGUUACGCCGUUCGGAUCUGCACUU | -0.0712 |
| UAACUUUAGAGGAGGAUCUGAUGGAUAUGGCAGUGGACGUGGAUUUGGGGAUGGCUAUUAUGGGUAUGGAGGAGGACCUGGAGGUGGCAA | -0.117 |
| UCCUCAAGUCCUGUGCUACACAUCGUAUGUACCGAAUCGGCGGGCGGCGGGAAAGUAUUAUGUUACGCCGUUCGGAUCUGCACUUCCAGC | 1.16 |
| GCCUGGCGCUGGCCAACAAUAGCACCCUCACCAUUGGCACCAUCGAUGAGAUCCAGAAGCUGCACAUUCGCACAGUUCCCCUCUAUGAGU | 0.171 |
| GCAGGAAGUAAAAACAAAUGGAAAUGCAAAGGAUAGUGGCAGGGGUGGGGGUUGCUAAGGAAAGGGUGGGAUGGGAGUGGGUAAAGAGUU | 0.288 |

Block 4
Target: Prothrombin, mature alpha-thrombin (F2, Homo sapiens, UniProt P00734)
Method: aptamer microarray, sandwich
Molecule type: DNA with 2'F-ANA
Sample: in vitro
Concentration: 200 nM
Notes: whole 15-mer aptamer, many near background
Added: Cy3 exosite-II aptamer, 400 nM
Reading: higher = stronger binding
Oligonucleotide: GGTTGGTGTGGTTGG
| Modification | mean fluorescence intensity [a.u.] |
| --- | --- |
| 2'F-ANA at 5 6 9 11 13 15 | 61.3 |
| 2'F-ANA at 1 4 9 11 14 | 46.7 |
| 2'F-ANA at 1 5 9 11 12 | 90.7 |
| 2'F-ANA at 8 10 13 15 | 143 |
| 2'F-ANA at 1 2 3 7 8 9 12 13 15 | 462 |
| 2'F-ANA at 1 2 3 4 7 9 11 | 142 |
| 2'F-ANA at 1 2 4 5 7 13 15 | 77 |
| 2'F-ANA at 1 2 3 4 11 12 | 309 |
| 2'F-ANA at 2 4 5 8 9 10 11 14 | 45.9 |
| 2'F-ANA at 3 4 5 7 8 9 11 14 15 | 51.3 |
| 2'F-ANA at 1 3 5 9 10 11 12 14 | 70.3 |
| 2'F-ANA at 2 3 7 9 10 13 | 375 |
| 2'F-ANA at 5 6 9 12 13 14 | 45.8 |
| 2'F-ANA at 1 3 4 6 7 10 11 12 13 | 76.7 |
| 2'F-ANA at 1 2 4 7 12 13 15 | 215 |
| 2'F-ANA at 1 2 4 6 7 10 11 13 15 | 50.4 |
| 2'F-ANA at 4 5 7 8 9 11 12 13 15 | 76.1 |
| 2'F-ANA at 2 4 8 12 | 744 |
| 2'F-ANA at 1 2 3 4 6 8 9 10 11 14 15 | 52.7 |
| 2'F-ANA at 1 3 5 8 10 12 13 | 46.8 |
| 2'F-ANA at 2 4 5 6 10 12 13 14 15 | 50 |
| 2'F-ANA at 3 6 10 11 12 14 | 428 |
| 2'F-ANA at 2 3 5 7 8 9 10 14 | 50.5 |
| 2'F-ANA at 3 5 9 12 13 15 | 169 |
| 2'F-ANA at 1 6 10 13 | 53.5 |
